Experimental data collected from several papers.
Lines come from different studies, so protocols differ. pKd: −log10 of the molar value.
U2AF2: U2AF2 148-342 (Homo sapiens, UniProt P26368)
Sequence of UniProt P26368 (whole entry, looked up): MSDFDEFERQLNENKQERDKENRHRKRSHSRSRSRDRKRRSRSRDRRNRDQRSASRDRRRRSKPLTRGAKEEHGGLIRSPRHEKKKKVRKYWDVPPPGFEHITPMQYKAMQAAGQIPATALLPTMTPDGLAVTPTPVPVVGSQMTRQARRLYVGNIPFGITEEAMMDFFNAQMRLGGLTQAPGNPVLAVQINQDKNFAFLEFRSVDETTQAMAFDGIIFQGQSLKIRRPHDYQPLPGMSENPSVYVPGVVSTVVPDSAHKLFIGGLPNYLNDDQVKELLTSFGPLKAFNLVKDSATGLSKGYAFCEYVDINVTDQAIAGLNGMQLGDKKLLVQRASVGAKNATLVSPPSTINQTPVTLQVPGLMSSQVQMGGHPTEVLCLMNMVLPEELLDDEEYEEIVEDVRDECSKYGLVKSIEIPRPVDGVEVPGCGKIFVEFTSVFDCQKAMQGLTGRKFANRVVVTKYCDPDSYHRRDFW
B1: SPOP E47A (Homo sapiens, UniProt O43791); sequence looked up; chain MSRVPSPPPPAEMSSGPVAESWCYTQIKVVKFSYMWTINNFSFCREAMGEVIKSSTFSSGANDKLKWCLRVNPKGLDEESKDYLSLYLLLVSCPKSEVRAKFKFSILNAKGEETKAMESQRAYRFVQGKDWGFKKFIRRDFLLDEANGLLPDDKLTLFCEVSVVQDSVNISGQNTMNMVKVPECRLADELGGLWENSRFTDCCLCVAGQEFQAHKAILAARSPVFSAMFEHEMEESKKNRVEINDVEPEVFKEMMCFIYTGKAPNLDKMADDLLAAADKYALERLKVMCEDALCSNLSVENAAEILILADLHSADQLKTQAVDFINYHASDVLETSGWKSMVVSHPHLVAEAYRSLASAQCPFLGPPRKRLKQS
B2: Ph-p 1397-1577 (Drosophila melanogaster, UniProt P39769); chain GVGSGETNGLGTGGIVGVDAMALVDRLDEAMAEEKMQTEATPKLSESFPILGASTEVPPMSLPVQAAISAPSPLAMPLGSPLSVALPTLAPLSVVTSGAAPKSSEVNGTDRPPISSWSVDDVSNFIRELPGCQDYVDDFIQQEIDGQALLLLKEKHLVNAMGMKLGPALKIVAKVESIKEV
B3: dlg1 1-97 I34G/V37G (Drosophila melanogaster, UniProt P31007); sequence looked up; chain MPVKKQEAHRALELLEDYHARLSEPQDRALRIAGERGIRIFKSRLFQALLDIQEFYELTLLDDSKSIQQKTAETLQIATKWEKDGQAVKIADFIKSS
B4: phosphoglycerate mutase 2, human; sequence looked up; chain MATHRLVMVRHGESTWNQENRFCGWFDAELSEKGTEEAKRGAKAIKDAKMEFDICYTSVLKRAIRTLWAILDGTDQMWLPVVRTWRLNERHYGGLTGLNKAETAAKHGEEQVKIWRRSFDIPPPPMDEKHPYYNSISKERRYAGLKPGELPTCESLKDTIARALPFWNEEIVPQIKAGKRVLIAAHGNSLRGIVKHLEGMSDQAIMELNLPTGIPIVYELNKELKPTKPMQFLGDEETVRKAMEAVAAQGKAK
B5: NINJ1 x (Homo sapiens, UniProt Q92982); sequence looked up; chain MDSGTEEYELNGGLPPGTPGSPDASPARWGWRHGPINVNHYASKKSAAESMLDIALLMANASQLKAVVEQGPSFAYYTTLVTLISISLVLQIGVGVLLIFLVKYDLNNPAKHAKLDFLNNLATGLVFIIVVVNIFITAFGVQKPLMDMAPQQ
B6: CRYAA G98R/R157Q (Homo sapiens, UniProt P02489); sequence looked up; chain MDVTIQHPWFKRTLGPFYPSRLFDQFFGEGLFEYDLLPFLSSTISPYYRQSLFRTVLDSGISEVRSDRDKFVIFLDVKHFSPEDLTVKVQDDFVEIHRKHNERQDDHGYISREFHRRYRLPSNVDQSALSCSLSADGMLTFCGPKIQTGLDATHAEQAIPVSREEKPTSAPSS
B7: SPOP E78K (Homo sapiens, UniProt O43791); sequence looked up; chain MSRVPSPPPPAEMSSGPVAESWCYTQIKVVKFSYMWTINNFSFCREEMGEVIKSSTFSSGANDKLKWCLRVNPKGLDKESKDYLSLYLLLVSCPKSEVRAKFKFSILNAKGEETKAMESQRAYRFVQGKDWGFKKFIRRDFLLDEANGLLPDDKLTLFCEVSVVQDSVNISGQNTMNMVKVPECRLADELGGLWENSRFTDCCLCVAGQEFQAHKAILAARSPVFSAMFEHEMEESKKNRVEINDVEPEVFKEMMCFIYTGKAPNLDKMADDLLAAADKYALERLKVMCEDALCSNLSVENAAEILILADLHSADQLKTQAVDFINYHASDVLETSGWKSMVVSHPHLVAEAYRSLASAQCPFLGPPRKRLKQS
B8: SIR4 744-1358 (Saccharomyces cerevisiae, UniProt P11978); sequence looked up; chain PGKMELVYVSDSDDSSSDNDSLTDLESLSSGESNEIKVTNDLDTSAEKDQIQAGKWFDPVLDWRKSDRELTKNILWRIADKTTYDKETITDLIEQGIPKHSYLSGNPLTSVTNDICSVENYETSSAFFYQQVHKKDRLQYLPLYAVSTFENTNNTEKNDVTNKNINIGKHSQEQNSSSAKPSQIPTVSSPLGFEETKLSTTPTKSNRRVSHSDTNSSKPKNTKENLSKSSWRQEWLANLKLISVSLVDEFPSELSDSDRQIINEKMQLLKDIFANNLKSAISNNFRESDIIILKGEIEDYPMSSEIKIYYNELQNKPDAKKARFWSFMKTQRFVSNMGFDIQKSCEPVSISTSVKPHVVEPEHMADAKIMPKDILQITKKPLMVKNVKPSSPPDVKSLVQLSTMETKTLPEKKQFDSIFNSNKAKIIPGNGKHASENISLSFSRPASYGYFSVGKRVPIVEDRRVKQLDDITDSNTTEILTSVDVLGTHSQTGTQQSNMYTSTQKTELEIDNKDSVTECSKDMKEDGLSFVDIVLSKAASALDEKEKQLAVANEIIRSLSDEVMRNEIRITSLQGDLTFTKKCLENARSQISEKDAKINKLMEKDFQVNKEIKPY
B9: human USP5; sequence looked up; chain AELSEEALLSVLPTIRVPKAGDRVHKDECAFSFDTPESEGGLYICMNTFLGFGKQYVERHFNKTGQRVYLHLRRTRRPKEEDPATGTGDPPRKKPTRLAIGVEGGFDLSEEKFELDEDVKIVILPDYLEIARDGLGGLPDIVRDRVTSAVEALLSADSASRKQEVQAWDGEVRQVSKHAFSLKQLDNPARIPPCGWKCSKCDMRENLWLNLTDGSILCGRRYFDGSGGNNHAVEHYRETGYPLAVKLGTITPDGADVYSYDEDDMVLDPSLAEHLSHFGIDMLKMQKTDKTMTELEIDMNQRIGEWELIQESGVPLKPLFGPGYTGIRNLGNSCYLNSVVQVLFSIPDFQRKYVDKLEKIFQNAPTDPTQDFSTQVAKLGHGLLSGEYSKPVPESGDGERVPEQKEVQDGIAPRMFKALIGKGHPEFSTNRQQDAQEFFLHLINMVERNCRSSENPNEVFRFLVEEKIKCLATEKVKYTQRVDYIMQLPVPMDAALNKEELLEYEEKKRQAEEEKMALPELVRAQVPFSSCLEAYGAPEQVDDFWSTALQAKSVAVKTTRFASFPDYLVIQIKKFTFGLDWVPKKLDVSIEMPEELDISQLRGTGLQPGEEELPDIAPPLVTPDEPKGSLGFYGNEDEDSFCSPHFSSPTSPMLDESVIIQLVEMGFPMDACRKAVYYTGNSGAEAAMNWVMSHMDDPDFANPLILPGSSGPGSTSAAADPPPEDCVTTIVSMGFSRDQALKALRATNNSLERAVDWIFSHIDDLDAEAAMDISEGRSAADSISESVPVGPKVRDGPGKYQLFAFISHMGTSTMCGHYVCHIKKEGRWVIYNDQKVCASEKPPKDLGYIYFYQRVAS
Sequence of UniProt P21576 (whole entry, looked up): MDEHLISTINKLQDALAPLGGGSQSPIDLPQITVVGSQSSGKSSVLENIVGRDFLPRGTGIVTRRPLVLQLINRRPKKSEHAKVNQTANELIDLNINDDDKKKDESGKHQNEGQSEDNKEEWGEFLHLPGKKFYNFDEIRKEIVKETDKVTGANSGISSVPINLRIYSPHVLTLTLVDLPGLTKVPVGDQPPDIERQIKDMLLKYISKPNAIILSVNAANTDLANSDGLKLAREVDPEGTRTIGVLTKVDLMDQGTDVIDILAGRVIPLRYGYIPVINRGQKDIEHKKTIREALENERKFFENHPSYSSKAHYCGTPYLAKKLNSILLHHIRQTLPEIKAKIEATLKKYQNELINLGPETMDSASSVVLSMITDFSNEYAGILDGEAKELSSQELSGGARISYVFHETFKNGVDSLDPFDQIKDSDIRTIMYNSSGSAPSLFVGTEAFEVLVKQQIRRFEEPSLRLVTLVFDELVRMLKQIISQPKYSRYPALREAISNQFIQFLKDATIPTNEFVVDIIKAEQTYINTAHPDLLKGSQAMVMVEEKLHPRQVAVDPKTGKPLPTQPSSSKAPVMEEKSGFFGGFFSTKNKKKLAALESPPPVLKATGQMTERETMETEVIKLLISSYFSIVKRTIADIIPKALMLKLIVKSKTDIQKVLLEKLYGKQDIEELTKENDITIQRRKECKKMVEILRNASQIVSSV
Sequence of UniProt D3KZG3 (whole entry, looked up): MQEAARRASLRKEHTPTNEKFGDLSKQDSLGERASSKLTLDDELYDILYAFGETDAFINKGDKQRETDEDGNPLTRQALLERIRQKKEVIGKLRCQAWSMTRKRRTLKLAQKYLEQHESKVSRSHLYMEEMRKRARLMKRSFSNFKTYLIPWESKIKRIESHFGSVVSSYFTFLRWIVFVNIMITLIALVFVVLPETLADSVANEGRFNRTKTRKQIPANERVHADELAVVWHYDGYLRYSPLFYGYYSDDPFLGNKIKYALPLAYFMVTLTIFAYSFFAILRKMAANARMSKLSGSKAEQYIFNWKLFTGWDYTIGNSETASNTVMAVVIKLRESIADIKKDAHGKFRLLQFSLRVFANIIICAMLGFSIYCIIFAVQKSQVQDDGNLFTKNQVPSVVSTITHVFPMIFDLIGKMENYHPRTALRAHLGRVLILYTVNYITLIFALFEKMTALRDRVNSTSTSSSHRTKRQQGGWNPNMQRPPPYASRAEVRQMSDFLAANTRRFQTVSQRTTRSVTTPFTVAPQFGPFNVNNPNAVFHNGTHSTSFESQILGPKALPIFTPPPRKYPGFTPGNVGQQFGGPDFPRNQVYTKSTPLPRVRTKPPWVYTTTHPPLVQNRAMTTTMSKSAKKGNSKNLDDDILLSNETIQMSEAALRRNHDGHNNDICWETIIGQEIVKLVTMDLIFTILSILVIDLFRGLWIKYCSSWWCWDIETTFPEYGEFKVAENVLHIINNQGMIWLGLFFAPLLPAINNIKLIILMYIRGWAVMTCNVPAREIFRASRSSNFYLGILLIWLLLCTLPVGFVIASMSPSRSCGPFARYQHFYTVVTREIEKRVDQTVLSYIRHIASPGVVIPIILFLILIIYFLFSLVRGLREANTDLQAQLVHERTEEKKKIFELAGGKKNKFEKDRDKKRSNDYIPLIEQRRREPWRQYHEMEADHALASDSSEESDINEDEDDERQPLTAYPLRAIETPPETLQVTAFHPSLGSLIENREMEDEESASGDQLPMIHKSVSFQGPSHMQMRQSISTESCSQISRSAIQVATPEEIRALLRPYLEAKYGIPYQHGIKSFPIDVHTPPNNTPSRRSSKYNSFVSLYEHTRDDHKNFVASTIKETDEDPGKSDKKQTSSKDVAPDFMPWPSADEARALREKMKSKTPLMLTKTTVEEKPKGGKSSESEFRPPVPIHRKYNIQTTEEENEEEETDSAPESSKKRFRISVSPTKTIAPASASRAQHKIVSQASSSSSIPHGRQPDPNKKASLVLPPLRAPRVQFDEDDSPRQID

B1 (SPOP E47A)  binding (itself; negative-stain TEM): binds
B2 (Ph-p 1397-1577)  binding (itself; AUC; sedimentation velocity, self-association): binds
B3 (dlg1 1-97 I34G/V37G)  binding (itself; SEC): binds
B4  log2 fold change (CYB5R4 knockout human cells; PP6 interaction, 3xFLAG-PP6C IP-MS; concentration not given; relative to: CYB5R4 KO over parental): 1.33
CUUAUAUUU (ssRNA)  pKd (U2AF2; sequencing of bound RNA; RNA; motif only): 5.68
B5 (NINJ1 x)  binding (itself; negative-stain EM): binds
B6 (CRYAA G98R/R157Q)  binding (itself; SEC-MALS; 1 hour h, pH 7.4, 37 °C): binds
B7 (SPOP E78K)  binding (itself; negative-stain TEM): binds
VPS1 (Saccharomyces cerevisiae, UniProt P21576)  binding (itself; pellet-supernatant ultracentrifugation): binds
CUUUAUUUU (ssRNA)  pKd (U2AF2; sequencing of bound RNA; RNA; motif only): 5.14
tmc-1 (Caenorhabditis elegans, UniProt D3KZG3)  binding (itself; SEC): binds
B8 (SIR4 744-1358)  binding (itself; cross-linking mass spectrometry): binds
B9 (human USP5)  log2 fold change (CYB5R4 knockout human cells; PP4 interaction, 3xFLAG-PP4C IP-MS; concentration not given; relative to: CYB5R4 KO over parental): -0.11
KLVFFAE (Abeta residues 16-22 (Homo sapiens); N-acetyl, C-amide)  binding (itself; solid-state NMR; peptide): binds

A few entries again:
VPS1 (Saccharomyces cerevisiae, UniProt P21576)  binding (itself; pellet-supernatant ultracentrifugation): binds
CUUUAUUUU (ssRNA)  pKd (U2AF2; sequencing of bound RNA; RNA; motif only): 5.14
